# Measured values of several laboratories.
# Each line is one published result; not all experiments were run side by side. ± gives the spread as reported.
SMILES,tested on,test,test system,setting,how to read,measurement,result
Nc1ncnc2c1ncn2[C@@H]1O[C@@H]2COP(=O)(O)O[C@H]3[C@@H](O)[C@H](n4cnc5c(=O)[nH]cnc54)O[C@@H]3COP(=O)(O)O[C@H]2[C@H]1O,HFF-1,"RNA sequencing, refers to: Interleukin-4 and -13 signaling",,upregulated pathway,reference: Zika virus alone,pathway fold enrichment,5.46
CN1CCN(S(=O)(=O)c2cc([N+](=O)[O-])ccc2N(CCOS(C)(=O)=O)CCOS(C)(=O)=O)CC1,,,"NSG mice, sample CF PDX","intraperitoneal, 25 mg/kg weekly x3",reference: vehicle,EFS delay (T-C),150 days
CN(Cc1cnc2nc(N)nc(N)c2n1)c1ccc(C(=O)N[C@@H](CCC(=O)O)C(=O)O)cc1,human coronavirus OC43,virus-induced cell killing,MRC-5,screen,,maximum inhibition,18.5%
Cc1ccc(C(C)Nc2nc(N3CCNCC3)nc3ccccc23)cc1 (centres unmarked),Vero-E6,CellTiter-Glo ATP,,"concentration not given, 72 h, second round 5-point","reference: DMSO 0%, hyamine -100%, more negative, more toxic",cytotoxicity efficacy,0%
CC(C)(C)NCCc1c[nH]c2cccc(O)c12.CC(C)(C)NCCc1c[nH]c2cccc(O)c12.O=C(O)/C=C/C(=O)O,,,C57BL/6J mice,"subcutaneous, 30 mg/kg",reference: pre-session baseline,body temperature change,-0.9 ± 0.1 °C
COc1cc2c(cc1OCC1CC1)NC(=O)C21CCN(c2cc(NC3CC3)ncn2)CC1,Vero-E6,CellTiter-Glo ATP,,"concentration not given, 72 h, retest 8-point duplicates","reference: DMSO 0%, hyamine -100%, more negative, more toxic",cytotoxicity efficacy,0%
CCOC(=O)[C@@H](N)CCC(=O)N[C@@H](CSCc1ccccc1)C(=O)N[C@@H](C(=O)OCC)c1ccccc1.Cl,human coronavirus OC43,virus-induced cell killing,MRC-5,screen,,maximum inhibition,36.3%
COc1c(CCC[P+](c2ccccc2)(c2ccccc2)c2ccccc2)cc2c(c1OC)OCO2.[I-],NCI/ADR-RES,SRB,,,,Log10TGI,> -4 log M
CC[C@H](C)[C@@H]1NC(=O)[C@@H]2CCCN2C(=O)[C@H](CC(C)C)NC(=O)[C@H](CC(C)C)NC(=O)CNC(=O)[C@@H](NC(=O)[C@@H](NC(=O)[C@H](CC(=O)O)NC(=O)CNC(=O)[C@@H](NC(=O)[C@H](C)NC(=O)CNC(=O)[C@H](CCCCN)NC(=O)[C@H](CC(C)C)NC(=O)[C@H](CC(C)C)NC(=O)[C@H](CCCCN)NC(=O)CNC(=O)[C@@H](NC(=O)[C@@H](N)CC(C)C)C(C)C)C(C)C)C(C)C)CSSC[C@@H](C(=O)O)NC1=O,,"RNA-seq, refers to: Mei4","mouse, traumatic brain injury model, frontal cortex and hippocampus",dose not given,reference: TBI alone,log2 fold change,1.52
Cc1cc(Nc2cc(N3CCN(C)CC3)nc(/C=C/c3ccccc3)n2)n[nH]1,human coronavirus OC43,virus-induced cell killing,MRC-5,maximum over 10 doses,,maximum inhibition,0%
COc1cc(CCC[P+](c2ccccc2)(c2ccccc2)c2ccccc2)c(OC)c2c1OCO2.[I-],CAKI-1,SRB,,,,LC50,> -4 log M

# Some of these lines once more:
SMILES,tested on,test,test system,setting,how to read,measurement,result
CN1CCN(S(=O)(=O)c2cc([N+](=O)[O-])ccc2N(CCOS(C)(=O)=O)CCOS(C)(=O)=O)CC1,,,"NSG mice, sample CF PDX","intraperitoneal, 25 mg/kg weekly x3",reference: vehicle,EFS delay (T-C),150 days
